Published values of several laboratories.
Parts stem from different laboratories: compare values within a part only.

Sample 1
Target: RNA binding protein fox-1 homolog 2, RRM domain, GST-SBP tag (RBFOX2, Homo sapiens, UniProt O43251-10, residues 100-194)
Method: RNA Bind-n-Seq
Molecule type: RNA
Matrix: in vitro
Tested at: 365 nM
Notes: natural RNA segment, single round, ends assumed
Baseline: no-protein control
Reading: higher = stronger binding
Shared flanks, not repeated: GGGAGUUCUACAGUCCGACGAUC … UGGAAUUCUCGGGUGCCAA
Target sequence (chain): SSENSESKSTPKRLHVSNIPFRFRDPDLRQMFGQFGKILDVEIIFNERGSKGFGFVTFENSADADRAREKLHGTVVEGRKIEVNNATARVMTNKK
`AAAAGCUAGACAGAUCCCCGUUCCUGACAUCACAGCAGCCUCCAACACAAGGCUCCAAGACCUAGGCUCAUGGACGAGAUGGGAAGGCACAGGGAGAAGGGAUAACCCUA` — result for “RBNS enrichment (R)”: 0.209.
`CCAGGGGUCCUACUCGCUUCCCCCCUGCUCAUACCUUGCCUAUGGAGACAUGAGAGGGCAGAAUCCUGCCCCCAGCCCUGGGCUGCUUUCGGGGGUCGGGGGAGGGCUCU`: “RBNS enrichment (R)” 0.935.
`UAUUUAACGAUUGCCUGACAGUCGAGUGUUUCCAAUGUGGUCGUCCAGUUUCUAUGGCCUUGCUGUGGACUUUCCCCUCUUUGUCGGUAACCUUUCGCCUAUGGCUUACA` — result for “RBNS enrichment (R)”: 0.378.
Under “RBNS enrichment (R)”, `UCAUGAGCAGAUCAGGACACUUAGCAAAUGUAAAAAUAAAAUCUAACUCUCAUUUGACAAGCAGAGAAAGAAAAGUUAAAUACCAGAUAAGCUUUUGAUUUUUGUAUUGU` is recorded as 0.517.
For `CCGAAUCUCUUUUUGCUUUCGAACUGCUAGUCAAGUGCGUCCACGAGCUGUUUACUAGGGAUCCCUCAUCUGUCCCUCCGGGACCUGGUGCUGCCUCUACCUGACACUCC`, “RBNS enrichment (R)” read 0.213.

Sample 2
Target: Sal-like protein 4, full length isoform A (SALL4, Homo sapiens, UniProt Q9UJQ4, residues 1-1053)
UniProt Q9UJQ4, sequence (whole entry, looked up): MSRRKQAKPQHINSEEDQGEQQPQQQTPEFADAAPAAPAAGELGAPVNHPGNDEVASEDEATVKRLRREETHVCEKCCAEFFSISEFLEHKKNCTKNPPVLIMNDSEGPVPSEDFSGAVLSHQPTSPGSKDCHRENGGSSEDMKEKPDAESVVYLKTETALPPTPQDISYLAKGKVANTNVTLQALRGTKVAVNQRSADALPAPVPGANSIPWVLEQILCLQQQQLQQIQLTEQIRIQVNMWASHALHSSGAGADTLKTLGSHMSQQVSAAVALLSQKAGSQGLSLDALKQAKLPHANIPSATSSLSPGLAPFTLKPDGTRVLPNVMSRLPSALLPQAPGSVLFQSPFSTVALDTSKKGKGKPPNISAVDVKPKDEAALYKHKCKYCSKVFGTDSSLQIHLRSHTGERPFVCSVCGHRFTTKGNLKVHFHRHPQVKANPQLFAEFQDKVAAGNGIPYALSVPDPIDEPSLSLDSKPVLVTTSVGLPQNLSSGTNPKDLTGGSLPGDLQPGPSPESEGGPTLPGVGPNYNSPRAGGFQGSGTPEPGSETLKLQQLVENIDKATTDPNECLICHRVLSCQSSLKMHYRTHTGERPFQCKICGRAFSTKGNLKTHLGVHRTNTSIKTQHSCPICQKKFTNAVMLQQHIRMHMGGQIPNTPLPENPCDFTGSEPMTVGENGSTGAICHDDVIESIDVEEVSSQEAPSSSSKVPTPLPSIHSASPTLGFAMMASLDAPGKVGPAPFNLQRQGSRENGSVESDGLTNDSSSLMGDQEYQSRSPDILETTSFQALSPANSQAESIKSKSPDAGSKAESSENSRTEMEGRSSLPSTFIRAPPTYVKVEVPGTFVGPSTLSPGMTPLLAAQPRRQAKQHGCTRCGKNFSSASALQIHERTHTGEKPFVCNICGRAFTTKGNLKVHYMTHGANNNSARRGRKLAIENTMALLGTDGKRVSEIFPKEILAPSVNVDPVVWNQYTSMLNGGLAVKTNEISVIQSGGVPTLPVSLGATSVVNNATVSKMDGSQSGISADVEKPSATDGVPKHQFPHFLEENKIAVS
Method: universal PBM
Molecule type: double-stranded DNA, one strand shown
Matrix: in vitro
Tested at: 600 nM
Notes: 8-mer, flanks averaged, mean of replicates
Reading: higher = stronger binding
`AACTTGGG` has an E-score of -0.0103.
With `AATCCACC` the E-score was -0.124.
`GCGTTCAA` gave an E-score of -0.0425.
`AGCAACGG` has an E-score of -0.154.
With `CCCCTTAA` the E-score was -0.0162.

Sample 3
Target: Histone acetyltransferase KAT6A, winged helix 2, GST fusion (KAT6A, Homo sapiens, UniProt Q92794, residues 85-181)
Method: protein binding microarray
Molecule type: double-stranded DNA, one strand shown
Matrix: in vitro
Tested at: not given
Notes: 8-mer, flanks averaged, mean of 2 arrays, mostly near background
Baseline: not given
Reading: higher = stronger binding
Target sequence (chain): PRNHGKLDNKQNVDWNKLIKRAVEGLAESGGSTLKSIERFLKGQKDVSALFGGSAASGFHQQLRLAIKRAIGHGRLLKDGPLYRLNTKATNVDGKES
The E-score of `AGCAATTG` is reported as 0.0622.
`ACTTGAAT` gave an E-score of -0.0289.
For `GAGCAAAA`, the E-score was 0.0763.
`ATGAACGA` has an E-score of -0.0229.

Further values, each from its own experiment
For `PhoQ, residues 284 288 289 292 302 303 SCKMEA`, the fold induction was 4.34 (PhoP, residues 12 14 15 18 19 NQGLL (Escherichia coli, UniProt P23836); Sort-seq, item: YFP reporter; E. coli; PhoQ-PhoP variant library, added: 10 µM Mg2+; baseline: high Mg2+ state, higher = stronger signaling).

Some of these lines once more (sample 2):
`AACTTGGG` has an E-score of -0.0103.
